Assay results pooled from the literature.
Each line is one published result; not all experiments were run side by side. Values joined by “and” are separate records of one study, mostly repeats; a detail may differ. ± gives the spread as reported.

[18F]c1ccc(-c2ccc3c(c2)[nH]c2ccncc23)cn1  SUV (microPET/CT imaging; B6SJL mouse, normal, brain; intravenous, 15 min): 0.749 ± 0.138
CC(C)C[C@@H]1NC(=O)[C@H](C)NC(=O)[C@H](Cc2ccccc2)N(C)Cc2ccc([nH]2)CNC1=O  -log Pe (PAMPA; 2% lecithin in dodecane; 100 µM, 17 h, pH 6.4, 37 °C): 5.11 + 0.09
Cc1ccc(CCC(=O)Nc2nnc(S(N)(=O)=O)s2)cc1  unbound plasma concentration (BALB/c mouse, male, plasma; oral, 20 mg/kg, 0.167 h): 5.91 ng/mL
N#Cc1ccc2c(c1)[C@H]1CCCN(C(=O)c3ccc4[nH]cnc4c3)[C@H]1C2  median ACTH level (human; 80 mg, day 15): 7 pmol/L
O=C(NCc1cc[nH]n1)c1ccc([C@H]2[C@@H](F)[C@@H](F)C[C@@H](F)[C@H]2F)cc1  hepatic clearance (hepatocyte stability; cryopreserved rat hepatocytes; 1 µM): 38 mL/min/kg
COc1ccc2c(c1)CCN(C(=O)C1CCN(c3c(C#N)cnc4ccc(F)cc34)CC1)C2  intrinsic clearance (scaled) (rat liver microsomes): 709 mL/min/kg
C=CCn1c(=O)c2cnc(Nc3ccc(N4CCN(C)CC4)cc3)nc2n1-c1cccc(C(C)(C)O)n1  AUC(0-10 h) (human patients; oral, 175 mg twice daily, day 17, cycle 1, with: durvalumab 1500 mg iv): 6.91 µM·h
O=C(NCCc1cccnc1)c1ccc(C2CCCCC2)cc1  hepatic clearance (liver microsome stability; rat liver microsomes; 1 µM): 50 mL/min/kg
CNC(=O)c1ccc(-c2cnc3ncc(Cc4ccc5ncccc5c4)n3n2)cc1F  patients with adverse event (refers to: Constipation; cancer patients; oral, dose not given, dose escalation, grade 3-4): 0%
CCN1/C(=C/C(C)=O)Sc2ccc(F)cc21  mean blood pressure (cynomolgus monkey; oral, 10 mg/kg, 6 h post-dose): 95 ± 6 mmHg
O=C(OC(C(F)(F)F)C(F)(F)F)N1CCN(Cc2cccc(Oc3ccccc3)c2)CC1  Ktrans (PET blocking study; rhesus monkey, brain HIP; 0.03 mg/kg, compound pretreatment, with: [18F]T-401 tracer): 0.004 min⁻¹
CSCC[C@H](N)C(=O)N[C@@H](CC(C)C)C(=O)N[C@@H](CCCNC(=N)N)C(=O)N[C@@H](Cc1c[nH]c2ccccc12)C(=O)N[C@@H](CO)C(=O)N[C@@H](CCCNC(=N)N)C(=O)N[C@@H](CCCCN)C(=O)N[C@@H](CC(C)C)C(=O)N1CCC[C@H]1C(=O)N[C@@H](CS)C(=O)N[C@H](C(=O)N[C@@H](CO)C(N)=O)C(C)C  remaining activity (12G5 competition, SUP-T1 cells; human plasma; 20 µM, 2 h, 37 °C): 8 ± 2%
CN(Cc1cccnc1)C(=O)c1ccc([C@H]2[C@@H](F)[C@@H](F)C[C@@H](F)[C@H]2F)cc1  hepatic clearance (liver microsome stability; human liver microsomes; 1 µM, without NADPH): 3.9 mL/min/kg
OC[C@H]1O[C@@H](c2ccc(Cl)c(Cc3ccc(O[C@H]4CCOC4)cc3)c2)[C@H](O)[C@@H](O)[C@@H]1O  change in LDL cholesterol (Japanese type 1 diabetes patients, blood; 2.5 mg, day 28; relative to: baseline): 4.54 mg/dL
O=C(Nc1nc2cccc(-c3ccc(CN4CCS(=O)(=O)CC4)cc3)n2n1)C1CC1  treatment-emergent adverse events (refers to: metabolism and nutrition disorders; human rheumatoid arthritis patients; oral, 150 mg once daily, 4 weeks, regardless of relatedness): 0%
CCOCc1nc(O)c(-c2nnc(Cc3ccc(Cl)cn3)o2)c(O)c1-c1c(OC)cccc1OC  trough concentration (rat, post surgery, plasma; oral, 0.2 mg/kg once daily, day 6 post surgery): 9 nM
NC1(C(=O)N[C@@H](CCO)c2ccc(Cl)cc2)CCN(c2nc[nH]c3nccc2-3)CC1  incidence of Pyrexia (metastatic CRPC patients; 400 mg b.i.d., grade 3 to 4, treatment-related, with: enzalutamide 160 mg daily): 0%
CC(C)(C(=O)N1CCOc2c(C#N)cncc2C1)C(F)F  share of subjects with TEAE (refers to: musculoskeletal disorders; healthy humans, both sexes; oral, 30 mg single dose): 0%
CN(C(=O)n1cnc(-c2cccnc2)c1)C1CCCCC1  concentration (Wistar rat, hippocampus; oral, 10 mg/kg/day of BIA 10-2474, 72 h, repeated 5 days): 9.7 ± 0.2 ng/g
Cc1nc(-c2ccc(OCC(C)C)c(C#N)c2)sc1C(=O)O  body weight (KM mouse, chronic hyperuricaemia model; dose not given, day 16): 36.8 g and 36.4 g and 32.6 g and 31.4 g and 40.4 g and 33.2 g
O=C(O)CCC(=O)O.[2H]C([2H])([2H])Oc1cc(C)c2[nH]ccc2c1CN1CC[C@@H](C2CC2)C[C@H]1c1ccc(C(=O)O)cc1  TEAE decreased neutrophil (healthy Chinese subjects; 50 mg, single ascending dose): 0%
C[C@H]1CN(C(=O)CC#N)[C@]12CCN(c1ncnc3[nH]ccc13)C2  subjects with Paraesthesia (healthy human; oral, 12 mg single): 0%
O=C(NCCN1CCCC1=O)c1ccc([C@H]2[C@@H](F)[C@@H](F)C[C@@H](F)[C@H]2F)cc1  hepatic clearance (liver microsome stability; mouse liver microsomes; 1 µM): 27 mL/min/kg
CC(C)C(=O)O[C@H]1[C@H](C)OC(=O)[C@@H]1Cc1ccccc1  KFoc (clay soil; pH 7.3, organic carbon 5.6 %): 58 mL/g
COCCC(=O)Nc1ccc([C@H]2[C@@H](F)[C@@H](F)C[C@@H](F)[C@H]2F)cc1  hepatic clearance (liver microsome stability; cynomolgus liver microsomes; 1 µM): 4.9 mL/min/kg
CC(C)c1nc(N(C)S(C)(=O)=O)nc(-c2ccc(F)cc2)c1/C=C/[C@@H](O)C[C@@H](O)CC(=O)O  subjects with adverse event (refers to: nervous system disorders; healthy men; oral, dose not given, 8 days, treatment-emergent, crossover trial): 0%
Cc1cn(C(=O)c2c(-c3c(Cl)cc(Cl)cc3Cl)noc2C(C)(C)F)c2cccc(/C=C/C(=O)O)c12  AUC(0-8h) (human patients; 1400 mg bid, cycle 1 day 1): 175 µg·h/mL
C=CC[C@@H]1/C=C(\C)C[C@H](C)C[C@H](OC)[C@H]2O[C@@](O)(C(=O)C(=O)N3CCCC[C@H]3C(=O)O[C@H](/C(C)=C/[C@@H]3CC[C@@H](O)[C@H](OC)C3)[C@H](C)[C@@H](O)CC1=O)[C@H](C)C[C@@H]2OC  plasma K+ level (Wistar Kyoto rat, male, plasma; ip, 0.5 mg/kg/day, day 28, at sacrifice): 4.8 ± 0.4 mmol/L
NC(=O)CCNC(=O)c1ccc([C@H]2[C@@H](F)[C@@H](F)C[C@@H](F)[C@H]2F)cc1  hepatic clearance (liver microsome stability; human liver microsomes; 1 µM, without NADPH): 3.9 mL/min/kg
CNC(=O)c1ccc(-c2cnc3ncc(Cc4ccc5ncccc5c4)n3n2)cc1F  Teratogenicity patients (Japanese patients; oral, 400 mg twice daily, any grade): 0%
Cn1ncnc1[C@H]1c2n[nH]c(=O)c3cc(F)cc(c23)N[C@@H]1c1ccc(F)cc1  AUC(0-τ) (human patients, plasma; oral, 600 µg/m2, median): 0.189 µg·h/mL
CN(CCC#N)C(=O)c1ccc(C2CCCCC2)cc1  hepatic clearance (liver microsome stability; dog liver microsomes; 1 µM): 25 mL/min/kg
CNCc1ccc(-c2[nH]c3cc(F)cc4c3c2CCNC4=O)cc1  pulmonary embolism incidence (human patients; oral, 840 mg twice daily, all grades): 0%
Cc1cc(Nc2ccc(S(F)(F)(F)(F)F)cc2)n2nc(C(C)(F)F)nc2n1  AUC(0-168 h) (LC-MS/MS; human vivax malaria patients, plasma; oral, 800 mg, mean): 1080 µg·h/mL
CCn1ncc2c1-c1cnc(N)c(c1)O[C@H](C)c1cc(F)ccc1-c1nn(C)nc1C2  unbound plasma concentration (female athymic nude mice, sample B PDX; oral, 15 mg/kg twice daily for 21 days, 1 h): 737 ± 58 nM
CCCCC(CC)COC(=O)CC(C(=O)OCC(CC)CCCC)S(=O)(=O)O.O=C(NCCCNc1nc(Nc2cccc(NC(=O)N3CCCC3)c2)ncc1I)c1cccs1  degradation onset temperature (thermogravimetric analysis; nitrogen 10 °C/min): ~230 °C
Cc1ccc(Sc2ccccc2N2CCNCC2)c(C)c1  participants with TEAE (refers to: any TEAE; healthy adult women; oral, 5 mg daily, 12 days): 50%
C[C@@H](Nc1cc(F)cc(F)c1)c1cc(C(=O)N(C)C)cc2c(=O)cc(N3CCOCC3)oc12  dose reduction due to AE (advanced solid tumour patients; oral, 120 mg twice daily, continuous monotherapy): 40%
CC(C)NCCCC[C@@H]1NC(=O)[C@H](Cc2ccc(O)cc2)NC(=O)[C@H](Cc2ccccc2)NC(=O)CC[C@H](C(=O)N[C@@H](CCCCNC(C)C)C(=O)N[C@@H](CCCCNC(=O)[C@H](CCC(=O)O)NC(=O)[C@H](CCC(=O)O)NC(=O)[C@H](CCC(=O)O)NC(=O)CN2CCN(CC(=O)O)CCN(CC(=O)O)CCN(CC(=O)O)CC2)C(N)=O)NC(=O)CNC(=O)[C@H](Cc2ccc3ccccc3c2)NC(=O)[C@@H](CCCNC(=N)N)NC1=O [gallium-68 labelled]  tissue uptake (mouse with PC-3 xenograft, kidney; intravenous, 1 h): 4.28 %ID/g
Cn1cc(Nc2nccc(-c3ccc4c(c3)CN(C3COC3)CC[C@H]4NC(=O)c3cn(C(C)(C)C)nn3)n2)cn1  percent change from baseline (refers to: NKT cell count; human, clinical trial, whole blood; 50 mg twice daily, follow-up): -18.7%
CCOc1c([C@H](C)n2nc(C)c3c(N)ncnc32)cc(Cl)c(F)c1[C@@H]1CNC(=O)C1  share of patients (refers to: ΔQTcF ≤ 30 ms; previously treated B-cell malignancy; oral, dose not given, all doses, overall population): 100%
NCCONC(=O)[C@@H]1CC[C@@H]2CN1C(=O)N2OS(=O)(=O)O  adverse event incidence (refers to: increased vitamin C; healthy Chinese men; intravenous, 1 g, treatment-emergent): 0%
O=C(Nc1ccc(Cl)cc1)Nc1ccc(Cl)c(Cl)c1  milk fat partition ratio (cow whole milk; 200 nM; relative to: milk fat over skim milk): 158
O=C(COc1ccc(Cl)cc1)NC12CC(c3nnc([C@H]4C[C@@H](OC(F)(F)F)C4)o3)(C1)C2  TEAE leading to discontinuation (humans; concentration not given): 7.1%
CCc1ccc(OS(=O)(=O)[O-])cc1.[K+]  serum protein binding (ultrafiltration; normal rat serum; 37 °C): 100%
O=C(NCCN1CCCC1)c1cc(-c2ccc(CN3CCOCC3)cc2)nc2ccc(F)cc12  intrinsic clearance (dog liver microsomes): ≤ 1.9 mL/min/g
CC(C)Cn1cnc2c(N)nc3ccccc3c21  remaining compound (C57BL/6J mice, male, solvent-treated, liver microsomes; 1 µM, 45 min): ~7%
CC(C)(c1ccc(O)cc1)c1ccc(O)cc1  milk fat partition ratio (cow whole milk; 2000 nM; relative to: milk fat over skim milk): 13.7
CCN1CCN(Cc2ccc(NC(=O)c3ccc(C)c(NC(=O)c4cncc(-c5cccs5)c4)c3)cc2C(F)(F)F)CC1  mean plasma concentration (LC-MS/MS; C57BL/6 mouse, plasma; intraperitoneal, 30 mg/kg single dose, 8 h): 114 ng/mL
CO[C@H]1C[C@@H]2CC[C@@H](C)[C@@](O)(O2)C(=O)C(=O)N2CCCC[C@H]2C(=O)O[C@H]([C@H](C)C[C@@H]2CC[C@@H](O)[C@H](OC)C2)CC(=O)[C@H](C)/C=C(\C)[C@@H](O)[C@@H](OC)C(=O)[C@H](C)C[C@H](C)/C=C/C=C/C=C/1C  heart rate (healthy adult horses; intravenous, 0.06 mg/kg, 4 h): 32.5 ± 3.1 beats/min
Cc1nc2ccc(F)cc2n1-c1nc(N)c(F)c(Nc2ccc(C(F)(F)F)cc2)n1  dose-normalized Cmax (human patients, plasma; oral, 200 mg twice weekly, cycles 1 and 2 pooled): 6.3 ng/mL/mg
Cc1cc(NC2CCN(C(=O)OC3CCN(C(=O)/C=C/CN(C)C)C3)CC2)n2ncc(C(C)C)c2n1 (stereo not drawn)  patients with TEAE (CTCAE v4.0, refers to: Hypomagnesemia; patients with advanced solid tumours; oral, dose not given, TIW, grade 3 or higher): 0%
C=CC(=O)Nc1cc(Nc2nccc(-c3cn(C)c4ccccc34)n2)c(OC)cc1N(C)CCN(C)C  recovery (storage stability; human plasma; 30 d, on ice, LLOQ level): 42.3%
CCOc1c([C@H](C)n2nc(C)c3c(N)ncnc32)cc(Cl)c(F)c1[C@@H]1CNC(=O)C1  stability relative error (rat plasma; 1600 ng/mL, 3 weeks, -80 °C, frozen storage; relative to: nominal concentration): 10.1%
N#CCC(=O)Nc1ccc([C@H]2[C@@H](F)[C@@H](F)C[C@@H](F)[C@H]2F)cc1  hepatic clearance (liver microsome stability; dog liver microsomes; 1 µM): 14 mL/min/kg
CNC(=O)c1ccc(-c2cnc3ncc(Cc4ccc5ncccc5c4)n3n2)cc1F  unbound AUC(0-t) (human moderate hepatic impairment; oral, 200 mg single dose, adjusted geometric mean): 0.18 µg·h/mL
COc1ccc2nccc(N3CCc4c(cc(Cn5ccnc5)cc4-c4cn(C)nc4C(F)(F)F)C3=O)c2c1  AUC extrapolated (CD-1 mouse, male, plasma; oral, 50 mg/kg): 0.1%

Excerpt of the above:
CCN1CCN(Cc2ccc(NC(=O)c3ccc(C)c(NC(=O)c4cncc(-c5cccs5)c4)c3)cc2C(F)(F)F)CC1  mean plasma concentration (LC-MS/MS; C57BL/6 mouse, plasma; intraperitoneal, 30 mg/kg single dose, 8 h): 114 ng/mL
CO[C@H]1C[C@@H]2CC[C@@H](C)[C@@](O)(O2)C(=O)C(=O)N2CCCC[C@H]2C(=O)O[C@H]([C@H](C)C[C@@H]2CC[C@@H](O)[C@H](OC)C2)CC(=O)[C@H](C)/C=C(\C)[C@@H](O)[C@@H](OC)C(=O)[C@H](C)C[C@H](C)/C=C/C=C/C=C/1C  heart rate (healthy adult horses; intravenous, 0.06 mg/kg, 4 h): 32.5 ± 3.1 beats/min
Cc1nc2ccc(F)cc2n1-c1nc(N)c(F)c(Nc2ccc(C(F)(F)F)cc2)n1  dose-normalized Cmax (human patients, plasma; oral, 200 mg twice weekly, cycles 1 and 2 pooled): 6.3 ng/mL/mg
Cc1cc(NC2CCN(C(=O)OC3CCN(C(=O)/C=C/CN(C)C)C3)CC2)n2ncc(C(C)C)c2n1 (stereo not drawn)  patients with TEAE (CTCAE v4.0, refers to: Hypomagnesemia; patients with advanced solid tumours; oral, dose not given, TIW, grade 3 or higher): 0%
C=CC(=O)Nc1cc(Nc2nccc(-c3cn(C)c4ccccc34)n2)c(OC)cc1N(C)CCN(C)C  recovery (storage stability; human plasma; 30 d, on ice, LLOQ level): 42.3%
CCOc1c([C@H](C)n2nc(C)c3c(N)ncnc32)cc(Cl)c(F)c1[C@@H]1CNC(=O)C1  stability relative error (rat plasma; 1600 ng/mL, 3 weeks, -80 °C, frozen storage; relative to: nominal concentration): 10.1%
N#CCC(=O)Nc1ccc([C@H]2[C@@H](F)[C@@H](F)C[C@@H](F)[C@H]2F)cc1  hepatic clearance (liver microsome stability; dog liver microsomes; 1 µM): 14 mL/min/kg
